Published values of several laboratories.
± gives the spread as reported.

Structure (SMILES) = O=C1[O][Pt]2([NH][C@@H]3CCCC[C@H]3[NH]2)[O]C1=O; test = AUC-based, refers to: platinum; test system = BALB/c mice, CT26 tumour; conditions = iv; scale = baseline: tumour over liver; endpoint = tumour to organ ratio; result = 0.4
Structure (SMILES) = COc1cc2c(Oc3ccc4[nH]c(C)cc4c3F)ccnc2cc1OCC1(N)CC1; test system = paediatric recurrent refractory sarcoma; conditions = 8 mg; endpoint = Hypertension incidence; result = 0%
Structure (SMILES) = CC(C)=CC1C(C(=O)OC(C#N)c2cccc(Oc3ccccc3)c2)C1(C)C (stereo not shown); test = refers to: CYP3A5; test system = human, age 6 months; endpoint = enzyme contribution to clearance; result = 0.26%
Structure (SMILES) = CN[C@@H](C)C(=O)N[C@H]1CN(S(=O)(=O)c2cccc(S(=O)(=O)N3CC[C@H]4CC[C@@H](C(=O)NC(c5ccccc5)c5ccccc5)N4C(=O)[C@@H](NC(=O)[C@H](C)NC)C3)c2)CC[C@H]2CC[C@@H](C(=O)NC(c3ccccc3)c3ccccc3)N2C1=O; test system = patients with advanced solid tumours; conditions = 12 mg, phase I monotherapy; endpoint = treatment-related AST elevation incidence; result = 0%
Structure (SMILES) = O=C(Nc1ccccc1)C1CCN(C(=O)Oc2cccnc2)CC1; test system = healthy women; conditions = oral, 20 mg, 7 days; endpoint = adverse event Dyspnoea; result = 0%
Structure (SMILES) = NC(=O)[C@H]1CCN(c2ncnc(N)c2F)C[C@@H]1N1CCC[C@@H](Nc2cc(Cl)cc(C(F)(F)F)c2)C1=O; test system = B-cell malignancy patients; conditions = oral, 410 mg twice daily, dose; endpoint = grade ≥3 lymphopenia; result = 0%
Structure (SMILES) = CCCCCCCCCCCCCCCC(=O)N[C@@H](CCC(=O)NCCCC[C@H](NC(=O)[C@H](CC(=O)O)NC(=O)[C@H](CO)NC(=O)[C@@H](NC(=O)[C@H](Cc1ccccc1)NC(=O)[C@@H](NC(=O)CNC(=O)[C@H](CCC(N)=O)NC(=O)[C@H](CO)NC(=O)[C@@H](N)Cc1c[nH]cn1)[C@@H](C)O)[C@@H](C)O)C(=O)N[C@@H](CO)C(=O)N[C@@H](CCC(=O)O)C(=O)N[C@@H](Cc1ccc(O)cc1)C(=O)N[C@@H](CC(C)C)C(=O)N[C@@H](CC(=O)O)C(=O)N[C@@H](CO)C(=O)N[C@@H](CCC(=O)O)C(=O)N[C@@H](CCCNC(=N)N)C(=O)N[C@@H](C)C(=O)N[C@@H](CCCNC(=N)N)C(=O)N[C@@H](CC(=O)O)C(=O)N[C@@H](Cc1ccccc1)C(=O)N[C@H](C(=O)N[C@@H](C)C(=O)N[C@@H](Cc1c[nH]c2ccccc12)C(=O)N[C@@H](CC(C)C)C(=O)N[C@@H](CCC(=O)O)C(=O)N[C@@H](C)C(=O)NCC(=O)NCC(=O)O)C(C)C)C(=O)O; test = refers to: Dizziness; test system = humans CrCl 20 to 30 mL/min; conditions = subcutaneous, 100 µg single dose; endpoint = treatment-related adverse events; result = 0%
Structure (SMILES) = CC(C)C[C@H](NC(=O)[C@H](CCCCN)NC(=O)OCC1c2ccccc2-c2ccccc21)C(=O)N[C@H](C(=O)N[C@@H](Cc1ccccc1)C(=O)N[C@@H](Cc1ccccc1)C(=O)N[C@@H](CCCCN)C(=O)NCC(=O)N[C@@H](Cc1ccccc1)C(=O)N[C@@H](C)C(=O)N[C@@H](Cc1c[nH]c2ccccc12)C(=O)N[C@@H](CC(N)=O)C(=O)N[C@H](C(=O)N[C@H]1CSSC[C@@H](C(=O)N[C@@H](Cc2c[nH]cn2)C(=O)N[C@@H](CCCNC(=N)N)C(=O)N[C@@H](CCCNC(=N)N)C(=O)N[C@@H](C)C(=O)N[C@@H](CC(N)=O)C(N)=O)NC(=O)[C@H](C(C)C)NC(=O)[C@H](CCCNC(=N)N)NC(=O)[C@H](C(C)C)NC(=O)CNC(=O)[C@H](CC(N)=O)NC(=O)[C@H](CCCNC(=N)N)NC(=O)[C@H](Cc2ccc(O)cc2)NC(=O)[C@H](C(C)C)NC1=O)C(C)C)C(C)C; test system = ICR mouse, blood; conditions = intramammary, 10 mg/kg, day 5, 3 d dosing; endpoint = ALT; result = 48.3 ± 1.69 IU/L
Structure (SMILES) = N=C(N)NCCC[C@@H](NC(=O)[C@@H](N)Cc1ccccc1)C(=O)N[C@@H](Cc1ccccc1)C(=O)N[C@@H](CCCCN)C(N)=O; test = LC-MS; test system = human; conditions = 15 mg, 11.83 h; endpoint = mean amount excreted in urine; result = 1.22e+06 ng
Structure (SMILES) = CO[C@H]1C[C@@H]2CC[C@@H](C)[C@@](O)(O2)C(=O)C(=O)N2CCCC[C@H]2C(=O)O[C@H]([C@H](C)C[C@@H]2CC[C@@H](OC(=O)NCCOCCOCCOCCOCCOCCOCCOCCOCCC(=O)N3CCc4cc(Cn5nc(-c6ccc7oc(N)nc7c6)c6c(N)ncnc65)ccc4C3)[C@H](OC)C2)C[C@@H](O)[C@H](C)/C=C(\C)[C@@H](O)[C@@H](OC)C(=O)[C@H](C)C[C@H](C)/C=C/C=C/C=C/1C; test = phase 1 dose escalation, refers to: diarrhoea; test system = advanced solid tumour patients; conditions = intravenous, 10 mg weekly, any grade; endpoint = TRAE incidence; result = 37.5%
Structure (SMILES) = O=[N+]([O-])c1ccc2c(c1)S(=O)(=O)C=C2; test system = male C57BL/6 mice, blood; conditions = intraperitoneal, 10 mg/kg, day 8, group average; endpoint = platelet distribution width; result = 14.8%
Structure (SMILES) = CCC[C@@](N)(CO)CCc1ccc(OCCCCCC(C)C)cc1; test system = hound dogs, male; conditions = oral, 10 mg/kg, capsule, fed state, median; endpoint = Tmax; result = 6 h
Structure (SMILES) = CN(C(=O)n1cnc(-c2ccc[n+]([O-])c2)c1)C1CCCCC1; test system = Wistar rat, midbrain; conditions = oral, 10 mg/kg/day, 4 h, repeated 5 days; endpoint = concentration; result = 107 ± 38.6 ng/g

Repeated from above:
Structure (SMILES) = CN[C@@H](C)C(=O)N[C@H]1CN(S(=O)(=O)c2cccc(S(=O)(=O)N3CC[C@H]4CC[C@@H](C(=O)NC(c5ccccc5)c5ccccc5)N4C(=O)[C@@H](NC(=O)[C@H](C)NC)C3)c2)CC[C@H]2CC[C@@H](C(=O)NC(c3ccccc3)c3ccccc3)N2C1=O; test system = patients with advanced solid tumours; conditions = 12 mg, phase I monotherapy; endpoint = treatment-related AST elevation incidence; result = 0%
Structure (SMILES) = O=C(Nc1ccccc1)C1CCN(C(=O)Oc2cccnc2)CC1; test system = healthy women; conditions = oral, 20 mg, 7 days; endpoint = adverse event Dyspnoea; result = 0%
